{"data": "Measured values pooled from the literature", "note": "Every numbered part comes from another study and shows a few of its results, in no order."}
{"data": "Sample 1", "target": "Histone acetyltransferase KAT6A, winged helix 2, GST fusion (KAT6A, Homo sapiens, UniProt Q92794, residues 85-181)", "method": "protein binding microarray", "molecule type": "double-stranded DNA, one strand shown", "sample": "in vitro", "tested at": "not given", "setting": "8-mer, flanks averaged, mean of 2 arrays, mostly near background", "reference": "not given", "direction": "higher = stronger binding", "Construct (chain)": "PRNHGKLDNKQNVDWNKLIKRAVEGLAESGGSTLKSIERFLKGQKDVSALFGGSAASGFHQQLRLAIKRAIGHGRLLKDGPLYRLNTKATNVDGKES"}
{"Oligonucleotide": "ATCAATCG", "E-score": 0.00344}
{"Oligonucleotide": "GGCCTCTA", "E-score": -0.175}
{"Oligonucleotide": "GCAGGCAA", "E-score": 0.175}
{"Oligonucleotide": "AGGGAAAC", "E-score": 0.00323}
{"data": "Sample 2", "target": "Interferon regulatory factor 3, full length, phosphomimetic (IRF3, Homo sapiens, UniProt Q14653, residues 1-427, S386D/S396D/S398D/S402D/T404D/S405D)", "method": "protein-binding microarray", "molecule type": "double-stranded DNA, one strand shown", "sample": "in vitro", "tested at": "2540 nM top", "setting": "60-bp whole probe", "together with": "salmon DNA 0.4 mg/ml", "reference": "random background probes", "direction": "higher = stronger binding", "constant ends, left off below": "GCCTAGCAC … GTCTTGATTCGCTTGACGCTGCTG", "Target sequence (chain)": "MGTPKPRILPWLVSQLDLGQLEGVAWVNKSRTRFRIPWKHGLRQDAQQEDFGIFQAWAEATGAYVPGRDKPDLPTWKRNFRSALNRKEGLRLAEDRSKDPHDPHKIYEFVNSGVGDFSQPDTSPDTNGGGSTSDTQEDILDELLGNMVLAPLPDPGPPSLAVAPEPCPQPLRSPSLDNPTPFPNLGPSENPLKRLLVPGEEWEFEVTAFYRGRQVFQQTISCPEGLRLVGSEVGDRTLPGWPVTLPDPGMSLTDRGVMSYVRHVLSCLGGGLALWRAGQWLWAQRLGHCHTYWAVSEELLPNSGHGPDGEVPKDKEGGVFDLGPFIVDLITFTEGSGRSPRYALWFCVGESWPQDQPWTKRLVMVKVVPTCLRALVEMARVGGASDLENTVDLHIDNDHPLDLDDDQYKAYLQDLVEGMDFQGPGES"}
{"Oligonucleotide": "GACGATTTCATTCTCGAGACGTGCTAG", "fitted relative affinity": "3.38 z-score"}
{"Oligonucleotide": "GACGGTATCGACTCTGGGGACGTGCTA", "fitted relative affinity": "0.877 z-score"}
{"Oligonucleotide": "TCAAGTCTGAGATCCAGACTGTGCTAG", "fitted relative affinity": "0.00105 z-score"}
{"Oligonucleotide": "GACGAAGTGAGTATCGAGACGTGCTAG", "fitted relative affinity": "-0.287 z-score"}
{"Oligonucleotide": "TTAGGTATGGGACTGGGTTAGTGCTAG", "fitted relative affinity": "-0.757 z-score"}
{"Oligonucleotide": "TCATTTTTTTTTTTTCTACTGTGCTAG", "fitted relative affinity": "1.58 z-score"}
{"data": "Sample 3", "target": "Sal-like protein 4, full length isoform A (SALL4, Homo sapiens, UniProt Q9UJQ4, residues 1-1053)", "method": "universal PBM", "molecule type": "double-stranded DNA, one strand shown", "sample": "in vitro", "tested at": "600 nM", "setting": "8-mer, flanks averaged, mean of replicates", "direction": "higher = stronger binding", "UniProt Q9UJQ4, sequence (whole entry, looked up)": "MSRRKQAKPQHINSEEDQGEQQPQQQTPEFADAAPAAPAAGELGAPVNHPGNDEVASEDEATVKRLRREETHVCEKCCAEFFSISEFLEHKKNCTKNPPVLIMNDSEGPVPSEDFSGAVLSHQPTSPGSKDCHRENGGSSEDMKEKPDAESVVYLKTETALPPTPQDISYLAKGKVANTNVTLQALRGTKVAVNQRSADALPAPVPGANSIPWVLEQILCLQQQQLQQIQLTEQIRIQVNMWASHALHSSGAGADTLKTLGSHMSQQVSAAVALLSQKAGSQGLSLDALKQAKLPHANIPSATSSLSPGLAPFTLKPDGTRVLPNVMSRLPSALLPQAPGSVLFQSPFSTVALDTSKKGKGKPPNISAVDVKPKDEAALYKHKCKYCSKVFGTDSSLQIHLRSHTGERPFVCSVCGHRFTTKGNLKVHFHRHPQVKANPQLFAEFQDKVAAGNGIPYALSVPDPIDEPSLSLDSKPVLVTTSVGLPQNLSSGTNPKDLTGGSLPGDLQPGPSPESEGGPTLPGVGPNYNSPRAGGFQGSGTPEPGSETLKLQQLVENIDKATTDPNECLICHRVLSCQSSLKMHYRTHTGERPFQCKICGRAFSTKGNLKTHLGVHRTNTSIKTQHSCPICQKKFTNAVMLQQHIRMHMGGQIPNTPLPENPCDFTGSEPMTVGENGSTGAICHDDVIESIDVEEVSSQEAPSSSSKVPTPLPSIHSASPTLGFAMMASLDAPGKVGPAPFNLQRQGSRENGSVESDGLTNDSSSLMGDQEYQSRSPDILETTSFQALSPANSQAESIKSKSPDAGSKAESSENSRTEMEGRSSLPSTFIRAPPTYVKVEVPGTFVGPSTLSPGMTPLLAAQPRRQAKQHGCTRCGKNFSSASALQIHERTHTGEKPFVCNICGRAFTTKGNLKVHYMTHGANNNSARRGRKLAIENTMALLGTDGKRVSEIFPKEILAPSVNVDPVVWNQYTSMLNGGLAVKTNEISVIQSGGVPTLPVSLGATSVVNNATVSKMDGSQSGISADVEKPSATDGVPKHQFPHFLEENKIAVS"}
{"Oligonucleotide": "AGCGTACG", "E-score": -0.0699}
{"Oligonucleotide": "GACAGGGA", "E-score": -0.215}
{"Oligonucleotide": "AAGACCTA", "E-score": 0.0101}
{"Oligonucleotide": "ACAGTTCG", "E-score": -0.0671}
{"Oligonucleotide": "AGTTGACG", "E-score": 0.0476}
{"Oligonucleotide": "AGGGCCGA", "E-score": -0.176}
{"Oligonucleotide": "GCAACGAC", "E-score": -0.199}
{"data": "Mixed results"}
{"Molecule": "PhoQ, residues 284 288 289 292 302 303 SSLVEF", "target": "PhoP, residues 12 14 15 18 19 SQCLL (Escherichia coli, UniProt P23836)", "assay": "Sort-seq, refers to: YFP reporter", "system": "E. coli", "conditions": "PhoQ-PhoP variant library, together with: 10 µM Mg2+", "how to read": "reference: high Mg2+ state, higher = stronger signaling", "quantity": "fold induction", "value": 13.6}
{"note": "Repeated from above (sample 1):"}
{"Oligonucleotide": "GCAGGCAA", "E-score": 0.175}
{"Oligonucleotide": "AGGGAAAC", "E-score": 0.00323}
